# Assay results gathered from unrelated publications.
# Each numbered part is a random draw from the data of one study; scales do not carry over between parts. Values joined by “and” are separate records of one study, mostly repeats; a detail may differ. Numbers after ± are the reported error.
# UniProt P00519, sequence (whole entry, unmodified, looked up): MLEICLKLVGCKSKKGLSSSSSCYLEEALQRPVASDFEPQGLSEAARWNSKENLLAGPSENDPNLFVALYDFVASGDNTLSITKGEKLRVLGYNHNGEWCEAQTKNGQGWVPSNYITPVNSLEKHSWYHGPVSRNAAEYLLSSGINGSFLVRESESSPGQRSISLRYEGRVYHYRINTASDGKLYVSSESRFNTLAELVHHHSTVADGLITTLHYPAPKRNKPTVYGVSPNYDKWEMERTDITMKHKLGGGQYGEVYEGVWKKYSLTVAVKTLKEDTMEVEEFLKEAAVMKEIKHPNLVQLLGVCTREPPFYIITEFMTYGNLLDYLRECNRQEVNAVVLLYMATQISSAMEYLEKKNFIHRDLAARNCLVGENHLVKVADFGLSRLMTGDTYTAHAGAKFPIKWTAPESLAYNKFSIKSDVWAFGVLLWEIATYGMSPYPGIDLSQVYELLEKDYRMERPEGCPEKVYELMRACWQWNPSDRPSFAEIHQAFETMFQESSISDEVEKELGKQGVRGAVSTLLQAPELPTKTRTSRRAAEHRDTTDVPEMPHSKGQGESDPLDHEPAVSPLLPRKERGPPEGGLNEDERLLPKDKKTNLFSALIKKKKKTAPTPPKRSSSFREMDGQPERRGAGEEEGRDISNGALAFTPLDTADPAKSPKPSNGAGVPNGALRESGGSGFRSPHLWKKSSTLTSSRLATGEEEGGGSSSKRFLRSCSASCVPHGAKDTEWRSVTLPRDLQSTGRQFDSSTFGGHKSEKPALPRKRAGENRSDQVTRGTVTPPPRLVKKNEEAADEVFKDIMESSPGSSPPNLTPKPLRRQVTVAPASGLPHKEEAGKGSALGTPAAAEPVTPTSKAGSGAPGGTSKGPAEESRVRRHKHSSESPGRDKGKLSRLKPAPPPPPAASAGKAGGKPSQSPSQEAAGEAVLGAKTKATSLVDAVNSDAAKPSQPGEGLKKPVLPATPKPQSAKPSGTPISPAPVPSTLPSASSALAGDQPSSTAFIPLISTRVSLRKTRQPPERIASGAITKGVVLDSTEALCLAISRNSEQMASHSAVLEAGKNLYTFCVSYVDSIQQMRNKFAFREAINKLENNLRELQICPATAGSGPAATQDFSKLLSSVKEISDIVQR
# UniProt Q9Y243, sequence (whole entry, looked up): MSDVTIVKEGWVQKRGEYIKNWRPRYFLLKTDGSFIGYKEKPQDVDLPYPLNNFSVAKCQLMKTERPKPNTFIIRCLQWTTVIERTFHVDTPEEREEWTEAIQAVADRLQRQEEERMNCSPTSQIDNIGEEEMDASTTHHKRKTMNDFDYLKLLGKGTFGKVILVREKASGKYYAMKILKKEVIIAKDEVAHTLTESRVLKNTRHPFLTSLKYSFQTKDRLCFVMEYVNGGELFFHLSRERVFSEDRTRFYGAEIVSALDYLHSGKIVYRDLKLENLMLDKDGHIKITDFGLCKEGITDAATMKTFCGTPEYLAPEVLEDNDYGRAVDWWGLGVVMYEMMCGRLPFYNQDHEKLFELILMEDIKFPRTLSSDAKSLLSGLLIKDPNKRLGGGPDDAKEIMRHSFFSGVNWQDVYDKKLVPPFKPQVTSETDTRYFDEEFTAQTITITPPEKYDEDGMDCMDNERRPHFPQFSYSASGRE
# UniProt P36507, sequence (whole entry, looked up): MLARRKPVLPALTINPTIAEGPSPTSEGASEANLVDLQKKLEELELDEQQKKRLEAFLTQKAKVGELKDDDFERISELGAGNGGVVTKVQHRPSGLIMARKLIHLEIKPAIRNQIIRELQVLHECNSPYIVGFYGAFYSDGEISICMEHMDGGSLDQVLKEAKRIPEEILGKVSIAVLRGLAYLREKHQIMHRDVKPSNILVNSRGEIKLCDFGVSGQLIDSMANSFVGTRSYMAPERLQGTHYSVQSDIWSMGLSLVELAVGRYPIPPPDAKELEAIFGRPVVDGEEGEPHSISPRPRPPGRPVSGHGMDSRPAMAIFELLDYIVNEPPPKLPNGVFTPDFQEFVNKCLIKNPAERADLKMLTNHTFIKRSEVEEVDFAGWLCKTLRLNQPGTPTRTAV

# Sample 1
# Target: Fibroblast growth factor receptor 1 (FGFR1, Homo sapiens, UniProt P11362)
# UniProt P11362, sequence (whole entry, looked up): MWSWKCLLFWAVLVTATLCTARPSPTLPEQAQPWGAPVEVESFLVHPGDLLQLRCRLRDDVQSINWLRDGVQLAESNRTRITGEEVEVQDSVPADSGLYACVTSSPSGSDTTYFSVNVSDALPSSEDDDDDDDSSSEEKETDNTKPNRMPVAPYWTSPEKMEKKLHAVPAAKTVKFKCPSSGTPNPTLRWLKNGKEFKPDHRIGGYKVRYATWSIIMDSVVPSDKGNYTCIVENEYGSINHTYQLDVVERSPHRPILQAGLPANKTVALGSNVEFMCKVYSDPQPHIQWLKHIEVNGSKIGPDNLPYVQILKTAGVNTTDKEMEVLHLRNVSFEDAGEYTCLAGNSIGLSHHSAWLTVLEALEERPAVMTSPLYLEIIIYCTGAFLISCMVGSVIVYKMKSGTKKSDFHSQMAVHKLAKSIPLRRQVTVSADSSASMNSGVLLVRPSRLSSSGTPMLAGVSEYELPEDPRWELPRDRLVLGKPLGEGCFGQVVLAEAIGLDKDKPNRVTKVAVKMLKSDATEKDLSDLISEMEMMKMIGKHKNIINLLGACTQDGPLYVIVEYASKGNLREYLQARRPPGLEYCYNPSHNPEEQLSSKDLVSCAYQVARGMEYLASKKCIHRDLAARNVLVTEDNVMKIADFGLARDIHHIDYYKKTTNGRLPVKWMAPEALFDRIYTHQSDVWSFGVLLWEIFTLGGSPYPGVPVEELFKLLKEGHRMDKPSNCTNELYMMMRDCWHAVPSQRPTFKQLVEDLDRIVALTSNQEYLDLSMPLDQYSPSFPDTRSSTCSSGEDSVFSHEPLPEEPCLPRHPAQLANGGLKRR
# Effect on: enzyme activity
# Mode: inhibitor
Structure (SMILES),IC50
CNc1ncc2cc(-c3cc(OC)cc(OC)c3Cl)c(=O)n(CCc3ccc(NC(=O)C(C#N)=CC(C)(C)C)cc3)c2n1,6 nM
CNc1ncc2cc(-c3cc(OC)cc(OC)c3Cl)c(=O)n(CCc3ccc(N(C)C(=O)C(C#N)=CC(C)(C)NC)cc3)c2n1,3 nM
CNc1ncc2cc(-c3cc(OC)cc(OC)c3Cl)c(=O)n(CCc3ccc(N(C)C(=O)C(C#N)=CC(C)(C)N(C)C)cc3)c2n1,6 nM

# Sample 2
# Matrix: FeSSIF
# Time: 24 h
# pH: 5.0
Structure (SMILES),kinetic solubility [µM]
Cc1ccc(O)c(C)c1-c1cnc2[nH]c(-c3cnc(N4CCC(CN5CCN(c6ccc7c(c6F)CN(C6CCC(=O)NC6=O)C7=O)CC5)CC4)nc3)cc2c1C#N (stereo not drawn),157
Cc1ccc(O)c(C)c1-c1cnc2[nH]c(-c3cnc(N4CCC5(CC4)CC(CN4CCN(c6ccc(NC7CCC(=O)NC7=O)cc6F)CC4)C5)nc3)cc2c1C#N (stereo not drawn),182
Cc1ccc(O)c(C)c1-c1cnc2[nH]c(-c3cnc(N4CC5(CC(CN6CCN(c7ccc(NC8CCC(=O)NC8=O)cc7F)CC6)C5)C4)nc3)cc2c1C#N (stereo not drawn),113
Cc1ccc(O)c(C)c1-c1cnc2[nH]c(-c3cnc(N4CCC(CN5CCN(c6ccc7c(c6)CN(C6CCC(=O)NC6=O)C7=O)CC5)CC4)nc3)cc2c1C#N (stereo not drawn),68
Cc1ccc(O)c(C)c1-c1cnc2[nH]c(-c3cnc(N4CCC(CN5CCN(c6ccc7c(c6)C(=O)N(C6CCC(=O)NC6=O)C7=O)CC5)CC4)nc3)cc2c1C#N (stereo not drawn),< 1.56
Cc1ccc(O)c(C)c1-c1cnc2[nH]c(-c3cnc(N4CCC(CN5CCN(c6ccc(NC7CCC(=O)NC7=O)cc6F)CC5)CC4)nc3)cc2c1C#N (stereo not drawn),109
Cc1ccc(O)c(C)c1-c1cnc2[nH]c(-c3cnc(N4CCC(CCN5CCN(c6ccc(NC7CCC(=O)NC7=O)cc6F)CC5)CC4)nc3)cc2c1C#N (stereo not drawn),131

# Sample 3
# Structure (SMILES): O=C(Nc1ccccc1)Nc1cccc(Oc2ccc3nccn3n2)c1
# Tested at: 1 µM
target,assay,remaining binding
"PIM3 (Homo sapiens, UniProt Q86V86)",binding,100%
"GRK1 (Homo sapiens, UniProt Q15835)",binding,100%
"DYRK1A (Homo sapiens, UniProt Q13627)",binding,100%
"MAP3K14 (Homo sapiens, UniProt Q99558)",binding,93%
"CDK2 (Homo sapiens, UniProt P24941)","binding, competition with immobilised ligand",100%
"RIPK1 (Homo sapiens, UniProt Q13546)",binding,98%
"LATS1 (Homo sapiens, UniProt O95835)",binding,100%
"BLK (Homo sapiens, UniProt P51451)","binding, competition with immobilised ligand",100%
"MAPK6 (Homo sapiens, UniProt Q16659)",binding,100%
"PDPK1 (Homo sapiens, UniProt O15530)",binding,100%
"BTK (Homo sapiens, UniProt Q06187)","binding, competition with immobilised ligand",100%
"CDC42BPA (Homo sapiens, UniProt Q5VT25)","binding, competition with immobilised ligand",99%
"AKT3 (Homo sapiens, UniProt Q9Y243)",binding,80%
"TLK1 (Homo sapiens, UniProt Q9UKI8)",binding,83%
"EGFR (Homo sapiens, UniProt P00533, G719S)",binding,31%
"COQ8B (Homo sapiens, UniProt Q96D53)",binding,82%
"ABL1 (Homo sapiens, UniProt P00519, F317I)",,51% and 100%

# Sample 4
# Target: Cyclin-dependent kinase 12, with cyclin K (CDK12, Homo sapiens, UniProt Q9NYV4)
# Effect on: kinase activity
# Mode: inhibitor
# Method: ADP-Glo
# Tested at: 0.0003 µM
SMILES,inhibition
CCn1cnc2c(NCc3nc4cc(Cl)c(Cl)cc4[nH]3)nc(N3CCN(C(=O)CNC(C)=O)CC3)nc21,2%
CCn1cnc2c(NCc3nc4cc(Cl)c(Cl)cc4[nH]3)nc(N3CCC(NC(C)=O)CC3)nc21,-3.6%
CCn1cnc2c(NCc3nc4cc(Cl)c(Cl)cc4[nH]3)nc(N3CCn4ncnc4C3)nc21,15.4%
CCn1cnc2c(NCc3nc4cc(Cl)c(Cl)cc4[nH]3)nc(N3CCN(C(=O)c4ccncc4)CC3)nc21,-0.1%
CC(=O)N1CCN(c2nc(NCc3nc4cc(Cl)c(Cl)cc4[nH]3)c3ncn(C(C)C)c3n2)CC1,1.4%
CCn1cnc2c(NCc3nc4cc(F)c(F)cc4[nH]3)nc(N3CCn4ncnc4C3)nc21,9.7%
CC(=O)N1CCN(c2nc(NCc3nc4cc(Cl)c(Cl)cc4[nH]3)c3ncn(-c4cnn(C)c4)c3n2)CC1,-7.5%
CCn1cnc2c(NCc3nc4cc(Cl)c(Cl)cc4[nH]3)nc(N3CCN(C(=O)c4ccccc4)CC3)nc21,-9.3%
CC(=O)N1CCN(c2nc(NCc3nc4cc(Cl)c(Cl)cc4[nH]3)c3ncn(C)c3n2)CC1,-1.2%

# Sample 5
# Organism: Arabidopsis thaliana
# Strain: Col-0
# Tested at: 100 µg/mL
# Notes: seed germination, repetition mean
SMILES,hypocotyl length
CCCN1C(=O)C(O)(C(=O)O)Oc2cc(F)ccc21 (stereo not drawn),0.752 cm
CC(C)=CCN1C(=O)C(O)(C(=O)O)Oc2cc(F)ccc21 (stereo not drawn),1.43 cm
COc1ccc2c(c1)OC(O)(C(=O)O)C(=O)N2Cc1ccccc1 (stereo not drawn),1.03 cm
O=C(O)C1Oc2cc(F)ccc2N(Cc2ccccc2)C1=O (stereo not drawn),1.54 cm
Cc1ccc2c(c1)OC(O)(C(=O)O)C(=O)N2Cc1ccccc1 (stereo not drawn),1.09 cm
O=C(O)C1(O)Oc2cc(F)ccc2N(Cc2ccccc2)C1=O (stereo not drawn),0.01 cm
CN1C(=O)C(O)(C(=O)O)Oc2cc(F)ccc21 (stereo not drawn),1.34 cm
O=C(O)C1(O)Oc2ccccc2N(Cc2ccccc2)C1=O (stereo not drawn),1.33 cm
CCN1C(=O)C(O)(C(=O)O)Oc2cc(F)ccc21 (stereo not drawn),1.24 cm

# Sample 6
# SMILES: C[C@@H]1CN(c2ccc(-c3cc(C(=O)NCCOCCOCCOCCOCCNC(=O)Cn4cc(-c5[nH]cc(C(=O)N[C@@H](CC(N)=O)c6ccc(F)c(Cl)c6)c5-c5ccc(Cl)cc5F)cn4)ccc3F)cc2NC(=O)c2c[nH]c(=O)cc2C(F)(F)F)C[C@H](C)N1C
# Effect on: thermal unfolding
# Method: differential scanning fluorimetry
# Tested at: 5.5 µM
# Direction: higher = more unfolded
# DCAF1: DDB1- and CUL4-associated factor 1 (DCAF1, Homo sapiens, UniProt Q9Y4B6)
# UniProt Q9Y4B6, sequence (whole entry, looked up): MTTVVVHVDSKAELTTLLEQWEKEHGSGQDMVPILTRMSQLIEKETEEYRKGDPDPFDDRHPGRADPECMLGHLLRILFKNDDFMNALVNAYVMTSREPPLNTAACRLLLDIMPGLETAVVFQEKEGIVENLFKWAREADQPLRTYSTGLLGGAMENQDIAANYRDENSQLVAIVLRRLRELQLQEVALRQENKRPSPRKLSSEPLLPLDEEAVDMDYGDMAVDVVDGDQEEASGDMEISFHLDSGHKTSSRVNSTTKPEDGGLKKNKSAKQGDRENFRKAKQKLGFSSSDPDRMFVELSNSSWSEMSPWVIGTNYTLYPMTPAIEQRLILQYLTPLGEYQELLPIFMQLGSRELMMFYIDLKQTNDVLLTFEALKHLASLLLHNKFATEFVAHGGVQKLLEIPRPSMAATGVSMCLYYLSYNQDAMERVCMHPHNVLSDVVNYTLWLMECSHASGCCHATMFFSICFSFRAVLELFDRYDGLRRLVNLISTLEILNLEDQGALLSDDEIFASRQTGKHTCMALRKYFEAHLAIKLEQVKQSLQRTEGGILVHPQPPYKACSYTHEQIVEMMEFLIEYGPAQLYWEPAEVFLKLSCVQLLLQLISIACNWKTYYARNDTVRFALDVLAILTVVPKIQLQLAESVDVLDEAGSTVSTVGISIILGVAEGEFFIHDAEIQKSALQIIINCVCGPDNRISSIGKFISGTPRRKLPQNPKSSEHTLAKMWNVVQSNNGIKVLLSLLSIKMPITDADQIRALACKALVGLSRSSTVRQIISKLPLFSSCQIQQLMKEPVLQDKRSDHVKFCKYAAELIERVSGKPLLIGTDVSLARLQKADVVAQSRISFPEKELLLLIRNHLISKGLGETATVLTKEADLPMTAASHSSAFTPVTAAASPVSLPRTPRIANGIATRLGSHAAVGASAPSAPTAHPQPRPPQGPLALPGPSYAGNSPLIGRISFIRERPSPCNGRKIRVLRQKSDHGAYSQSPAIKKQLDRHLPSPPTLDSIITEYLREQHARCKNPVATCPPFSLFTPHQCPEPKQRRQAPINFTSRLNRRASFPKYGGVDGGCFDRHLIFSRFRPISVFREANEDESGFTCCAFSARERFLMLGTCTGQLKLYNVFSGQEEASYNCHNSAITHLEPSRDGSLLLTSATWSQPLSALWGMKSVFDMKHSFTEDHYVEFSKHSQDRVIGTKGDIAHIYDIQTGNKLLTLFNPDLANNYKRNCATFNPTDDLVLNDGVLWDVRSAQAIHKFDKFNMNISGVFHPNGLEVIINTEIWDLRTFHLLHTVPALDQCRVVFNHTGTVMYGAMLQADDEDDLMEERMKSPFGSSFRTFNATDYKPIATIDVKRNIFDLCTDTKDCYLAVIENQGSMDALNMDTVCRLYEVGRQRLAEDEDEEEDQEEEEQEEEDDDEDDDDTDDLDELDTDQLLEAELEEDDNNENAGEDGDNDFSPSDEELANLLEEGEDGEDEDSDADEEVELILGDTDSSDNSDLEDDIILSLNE
# WDR5: WD repeat-containing protein 5 (WDR5, Homo sapiens, UniProt P61964)
target,setting,SYPRO Orange fluorescence [a.u.]
DCAF1,76.61 °C,47600
WDR5,88.01 °C,43500
DCAF1,30.6 °C,8330
DCAF1,78.41 °C,45500
WDR5,45.4 °C,14300
DCAF1,51.6 °C,15500
DCAF1,61.81 °C,46900
DCAF1,26.4 °C,7650
WDR5,74.81 °C,10800
WDR5,90.41 °C,42900
WDR5,34.2 °C,14400

# Sample 7
# Target: Sodium-dependent neutral amino acid transporter B(0)AT1 (SLC6A19, Homo sapiens, UniProt Q695T7)
# UniProt Q695T7, sequence (whole entry, looked up): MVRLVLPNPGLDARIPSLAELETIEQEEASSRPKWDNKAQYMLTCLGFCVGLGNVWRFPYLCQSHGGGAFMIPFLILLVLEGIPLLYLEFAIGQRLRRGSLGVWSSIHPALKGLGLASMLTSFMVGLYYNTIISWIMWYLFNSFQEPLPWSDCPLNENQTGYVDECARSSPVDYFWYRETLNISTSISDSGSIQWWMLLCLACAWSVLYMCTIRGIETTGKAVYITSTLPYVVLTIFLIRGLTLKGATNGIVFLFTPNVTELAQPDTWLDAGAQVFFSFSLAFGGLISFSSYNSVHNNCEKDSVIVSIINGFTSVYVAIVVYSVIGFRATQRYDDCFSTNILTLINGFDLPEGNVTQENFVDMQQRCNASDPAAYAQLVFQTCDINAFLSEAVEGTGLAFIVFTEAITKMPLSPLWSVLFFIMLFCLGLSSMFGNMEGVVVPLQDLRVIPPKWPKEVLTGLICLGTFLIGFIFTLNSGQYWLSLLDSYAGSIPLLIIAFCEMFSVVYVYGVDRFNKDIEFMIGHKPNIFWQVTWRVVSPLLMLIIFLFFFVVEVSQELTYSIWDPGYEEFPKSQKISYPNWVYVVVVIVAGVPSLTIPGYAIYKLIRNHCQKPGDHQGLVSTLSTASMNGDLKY
# Mode: inhibitor
# Method: FLIPR membrane potential
# Cells: CHO-BC cells
# Tested at: 30 µM
# Added: L-leucine 1.5 mM
# Reference: cinromide
Structure (SMILES),activity [%]
Cc1cc(OCC(=O)NC(C)C)cc(C)c1Br,11 ± 2
Cc1cc(Cl)ccc1OCC(=O)NC(C)C,82 ± 7
Cc1cc(OCC(=O)NC(C)C)cc(C)c1I,5 ± 1
Cc1cc(OCC(=O)OC(C)C)cc(C)c1Cl,102 ± 10
Cc1cc(NCC(=O)NC(C)C)cc(C)c1Cl,-2 ± 1
CCCCNC(=O)COc1cc(C)c(Cl)c(C)c1,105 ± 5

# Sample 8
# SMILES: CC[C@@]1(c2ccccc2)C2=C(CC(C)(C)CC2=O)Nc2n[nH]cc21
# Tested at: 1 µM
target,assay,how to read,remaining binding [%]
"MAP2K7 (Homo sapiens, UniProt O14733)","binding, competition with immobilised ligand",,91
"AKT3 (Homo sapiens, UniProt Q9Y243)","binding, competition with immobilised ligand",,100
"CDKL5 (Homo sapiens, UniProt O76039)","binding, competition with immobilised ligand",,100
"SNRK (Homo sapiens, UniProt Q9NRH2)","kinase binding, KINOMEscan",reference: DMSO control,86
"DMPK (Homo sapiens, UniProt Q09013)","binding, competition with immobilised ligand",,96
"Non-receptor tyrosine-protein kinase TYK2, JH2 pseudokinase domain (TYK2, Homo sapiens, UniProt P29597)","kinase binding, KINOMEscan",reference: DMSO control,100
"MAP2K2 (Homo sapiens, UniProt P36507)","kinase binding, KINOMEscan",reference: DMSO control,83
"ANKK1 (Homo sapiens, UniProt Q8NFD2)","binding, competition with immobilised ligand",,100
"Cyclin-dependent kinase 4, with cyclin D3 (CDK4, Homo sapiens, UniProt P11802)","binding, competition with immobilised ligand",,100
"NEK10 (Homo sapiens, UniProt Q6ZWH5)","binding, competition with immobilised ligand",,100
"PNCK (Homo sapiens, UniProt Q6P2M8)","binding, competition with immobilised ligand",,100
"PRKCD (Homo sapiens, UniProt Q05655)","binding, competition with immobilised ligand",,100
"STK17A (Homo sapiens, UniProt Q9UEE5)","binding, competition with immobilised ligand",,97
"STK16 (Homo sapiens, UniProt O75716)","binding, competition with immobilised ligand",,91
"SRPK1 (Homo sapiens, UniProt Q96SB4)","binding, competition with immobilised ligand",,95
"Myosin-IIIa (MYO3A, Homo sapiens, UniProt Q8NEV4)","binding, competition with immobilised ligand",,100
"Tyrosine-protein kinase ABL1, phosphorylated (ABL1, Homo sapiens, UniProt P00519, F317I)","binding, competition with immobilised ligand",,98

# Sample 9
# SMILES: CCN1/C(=C/C=C2\CCCC(/C=C/C3=[N+](CC)c4ccccc4C3(C)C)=C2NCCCCCCCCN2CCC(Nc3nc4ccccc4n3Cc3ccc(F)cc3)CC2)C(C)(C)c2ccccc21
# Cell line: U-87 MG
# Tested at: concentration not given
# Reference: DMSO
assay,log2 fold change
item: IGDCC4 mRNA,-1.39
item: EEF2K mRNA,-1.26
item: CGB8 mRNA,-2.04
item: ABI3 mRNA,-2.74
item: SSBP4 mRNA,-0.929
item: OSBPL8 mRNA,0.891
item: PYROXD2 mRNA,-1.02
item: NECAB1 mRNA,1.47
item: STING1 mRNA,-1.56
item: UCHL1 mRNA,0.895
item: TMEM132B mRNA,2.17
item: FSCN2 mRNA,-1.62
item: FAM13C mRNA,-1.74
item: ATF4 mRNA,0.941
item: PLXND1 mRNA,-1.29
item: GALNT5 mRNA,-2.11

# Mixed results
SMILES,target,assay,test system,setting,quantity,result
Cc1ncsc1-c1ccc(C2(NC(=O)C3CC(O)CN3C(=O)C(NC(=O)c3ccc(COc4c(-c5c(C)c(F)cc6[nH]ncc56)c(C5CC5)cc5c(N6CC7CC6CN7)nc(OC6CCOCC6)nc45)cc3)C(C)(C)C)CC2)cc1 (stereo not drawn),"von Hippel-Lindau disease tumor suppressor, with Elongin B/C (VHL, Homo sapiens, UniProt P40337)","SPR, single-cycle",immobilized VCB complex,"binary, geometric mean",Kd,1450 nM

# Repeated from above (sample 2):
Structure (SMILES),kinetic solubility [µM]
Cc1ccc(O)c(C)c1-c1cnc2[nH]c(-c3cnc(N4CCC5(CC4)CC(CN4CCN(c6ccc(NC7CCC(=O)NC7=O)cc6F)CC4)C5)nc3)cc2c1C#N (stereo not drawn),182
Cc1ccc(O)c(C)c1-c1cnc2[nH]c(-c3cnc(N4CCC(CN5CCN(c6ccc7c(c6F)CN(C6CCC(=O)NC6=O)C7=O)CC5)CC4)nc3)cc2c1C#N (stereo not drawn),157
Cc1ccc(O)c(C)c1-c1cnc2[nH]c(-c3cnc(N4CCC(CN5CCN(c6ccc(NC7CCC(=O)NC7=O)cc6F)CC5)CC4)nc3)cc2c1C#N (stereo not drawn),109
Cc1ccc(O)c(C)c1-c1cnc2[nH]c(-c3cnc(N4CCC(CN5CCN(c6ccc7c(c6)CN(C6CCC(=O)NC6=O)C7=O)CC5)CC4)nc3)cc2c1C#N (stereo not drawn),68
Cc1ccc(O)c(C)c1-c1cnc2[nH]c(-c3cnc(N4CCC(CCN5CCN(c6ccc(NC7CCC(=O)NC7=O)cc6F)CC5)CC4)nc3)cc2c1C#N (stereo not drawn),131
